Published values of several laboratories.
Compare with care: the assays were run in different laboratories. ± marks the error that the study gave.

The IC50 of `Cn1cc(-c2cc(N3CCCCS3(=O)=O)ccc2N[C@H]2CC[C@H](C)CC2)c2cc[nH]c2c1=O` (stereo in doubt) is reported as 0.00063 µM (Light2 cells expressing SMO^W535L; GLI-luciferase reporter, inhibitor, measured: SMO^W535L).
For `COc1ccc(/C=C\C(=O)OC2CCC3(C)C(C(O)CC4(C)C3CC(O)C3C(C5(C)CCCC(C)(C)O5)CCC34C)C2(C)C)cc1` (stereo not shown), the IC50 was 1.47 ± 0.08 µM (Hep3B; HRE reporter gene, inhibitor; 24 h, hypoxia).
The IC50 of `Cc1c(OCc2ccccc2)c(=O)ccn1CCCOC(=O)c1ccccc1Cl` is reported as 26 µg/mL (fibroblast cells; cell viability, MTT; 48 h).
`C=CC(OC(C)=O)c1ccc(OC)cc1` (stereo not shown) has an IC50 of over 50 µM (HMEC; MTT; 24 h).
With `COc1cccc2cc(C(=O)NNc3nc(-c4ccccc4)cs3)c(=O)oc12` the IC50 was 89 µM (EA.hy 926; cell growth or viability, SRB; 72 h).
For `CC1(C)CCCC(C)(C2CCC3(C)C2C(O)CC2C4(C)CCC(O)C(C)(C)C4C(OC(=O)c4cn(-c5ccccc5)nn4)CC23C)O1` (stereo not shown), the IC50 was over 30 µM (Hep3B; HRE reporter gene, inhibitor; 24 h, hypoxia).
`C=C1C(=O)OC2CC3=C[C@@H](C/C(C)=C/C(OC(=O)Cc4cccc5ccccc45)[C@H]12)OC3=O` (stereo partly shown) — result for IC50: “no inhibition” (M10 normal mammary cells; cell viability, MTT; 24 h).
`Cc1ccn2c(Nc3ccc(C(=O)NO)cc3)cnc2c1` has an IC50 of 3.92 µM (CAL-27; cell growth or viability, MTT).
With `CCCC[C@@H]1NC(=O)CN(S(C)(=O)=O)CCNC(=O)[C@H](CCCCN)NC(=O)[C@H](CC(C)C)NC(=O)[C@H](CCCCN)NC(=O)[C@H](CC(C)C)NC(=O)[C@H](CCC(N)=O)NC(=O)COC[C@H]2CCCN2C(=O)[C@H](Cc2c[nH]c3ccccc23)NC(=O)[C@H](C)NC(=O)[C@H](C(C)C)NC(=O)[C@H](C(C)C)NC1=O` the IC50 was 38.4 µM (NCI-H929; viability, TO-PRO-3 staining, flow cytometry).
`C=C(C)[C@@H]1CC[C@]2(C(=O)O)CC[C@]3(C)[C@H](CC[C@@H]4[C@@]5(C)CC[C@H](O[C@@H]6O[C@@H](C)[C@H](OC)[C@@H](O)[C@H]6O)C(C)(C)[C@@H]5CC[C@]43C)[C@@H]12` gave an IC50 of 4.3 µM (DLD-1; cell growth or viability, fluorescence; 48 h).
`CCNC(=O)OCc1c(COC(=O)NCC)c(-c2ccc(OC)cc2)n2c1Cc1ccccc1-2` has an IC50 of 57.7 ± 3.4 µM (PC-9 gefitinib-resistant B4; cell growth, Alamar Blue; 72 h).
The IC50 of `CC(C)(C)OC(=O)NCC(=O)OC1CC2(C)C(CC(O)C3C(C4(C)CCCC(C)(C)O4)CCC32C)C2(C)CCC(OC(=O)CNC(=O)OC(C)(C)C)C(C)(C)C12` (stereo not shown) is reported as 2.71 ± 0.11 µM (Hep3B; HRE reporter gene, inhibitor; 24 h, hypoxia).
`COc1cccc(-c2ccc(Nc3ccc(CN(C)C)cc3)c(OC)c2F)c1` gave an IC50 of 124 µM (SNU-1; ERK phosphorylation, HTRF).
`COc1cc(N2CCN(C)CC2)ccc1Nc1ncc2c(n1)N(C)c1ccc(C)cc1C(=O)N2CC(F)(F)F` has an IC50 of over 20 µM (PaTu 8902; cell growth or viability; 5 days, 3D culture).
With `C[N+]1(C)CC[NH2+][Pt-2]1([OH])([Cl])([Cl])[O]C(=O)CCC(=O)OCCO` the IC50 was 124 ± 4 µM (P31; cell viability, EZ4U; 96 h).
`CC(C)Cc1ccc(C(C)C(=O)N/N=C/c2ccc(OCC(=O)N/N=C/c3cccc(O)c3)cc2)cc1` (stereo not shown) has an IC50 of 62.89 ± 0.15 µM (U87 MG; cytotoxicity, MTT).
`CN(C)c1ccc(-c2nc3ccccn3c2Nc2ccc(C(=O)NO)cc2)cc1` gave an IC50 of 3.64 µM (CAL-27; cell growth or viability, MTT).
The IC50 of `[Cl][Pd-]1([Cl])[S]C(Nc2ccccc2)=N[N+]1=Cc1ccc(-c2ccccc2)s1` is reported as 100 µM (MDCK; cell proliferation).
`CSCC[C@@H]1NC(=O)CN(S(C)(=O)=O)CCNC(=O)[C@H](CCCCN)NC(=O)[C@H](CC(C)C)NC(=O)[C@H](CCCCN)NC(=O)[C@H](CC(C)C)NC(=O)[C@H](CCCCN)NC(=O)CN(S(C)(=O)=O)CCNC(=O)[C@H](Cc2c[nH]c3ccccc23)NC(=O)[C@H](CO)NC(=O)[C@H](C)NC(=O)[C@H](C(C)C)NC1=O` has an IC50 of 19 µM (NCI-H929; viability, TO-PRO-3 staining, flow cytometry).
`C=CC(=O)N1C[C@H](C)N(c2nc(OC[C@@]34CCCN3C[C@H](F)C4)nc3c(F)c(-c4ccc(F)c5sc(N)c(C#N)c45)c(C(F)(F)F)cc23)C[C@H]1C` has an IC50 of over 10 µM (NRAS wild-type-driven mouse embryonic fibroblasts; measured: pERK).
With `CC(C)=CCc1c2c(c(O)c3c(=O)c(-c4ccc(O)cc4O)coc13)C=CC(C)(C)O2` the IC50 was 26.7 µM (Huh-7; cell growth or viability, MTT; 24 h).
The IC50 of `Cc1ccc(-c2nc(SCc3cn(CC(=O)NC(=O)Nc4ccccn4)nn3)nc(Nc3cccc(C(F)(F)F)c3)c2C#N)cc1` is reported as 6.62 µM (MGC-803; cell growth or viability, MTS; 5 days).
The IC50 of `CC(C)OC(=O)[C@]12CS[C@H](c3ccccc3)N1C(=O)/C(=C(\O)CCc1ccccc1)C2=O` is reported as 31.3 µg/mL (MDCK; cell growth or viability, resazurin).
For `C=CCc1ccc(O)c(-c2cc(CC=C)ccc2OCCCCCCCCCC[P+](c2ccccc2)(c2ccccc2)c2ccccc2)c1`, the IC50 was 0.29 µM (UACC-62-R (PLX4720-resistant); cell proliferation, inhibitor).
The IC50 of `Cc1ccc(C(c2c[nH]c3ccccc23)c2c[nH]c3ccccc23)cc1` is reported as 13.4 µM (B16; cell growth or viability, MTT; 24 h).
For `COc1ccc(S(=O)(=O)Nc2ccc(CCCC(=O)O[C@H]3c4cc5c(cc4[C@@H](c4cc(OC)c(OC)c(OC)c4)[C@H]4C(=O)OC[C@@H]43)OCO5)cc2)cc1`, the IC50 was 17.1 µM (NCI-H446; cell growth or viability, CCK-8; 24 h).
`CCCC[C@@H]1NC(=O)CN(S(C)(=O)=O)CCNC(=O)[C@H](CCCCN)NC(=O)[C@H](CC(C)C)NC(=O)[C@H](CCCCN)NC(=O)[C@H](CC(C)C)NC(=O)[C@H](CCCCN)NC(=O)COC[C@H]2CCCN2C(=O)[C@H](Cc2c[nH]c3ccccc23)NC(=O)[C@H](C)NC(=O)[C@H]([C@@H](C)CC)NC(=O)[C@H](C(C)C)NC1=O` has an IC50 of 9.1 µM (NCI-H929; viability, TO-PRO-3 staining, flow cytometry).
For `Cc1ccc(NC(=O)c2c(C)oc3ccc(O)c(CN4CCCCCC4)c23)cc1`, the IC50 was 15.6 µM (KMM-1; cell growth or viability, MTS; 72 h).
With `NC1=N[N+](=Cc2c3ccccc3cc3ccccc23)[Ga-3]23([S]1)([S]C(N)=N[N+]2=Cc1c2ccccc2cc2ccccc12)[S]C(N)=N[N+]3=Cc1c2ccccc2cc2ccccc12` the IC50 was 16.5 ± 2.2 µM (Caco-2; 24 h).
`Fc1ccccc1/C=C/c1nc2ccccc2nc1N1CCOCC1` gave an IC50 of 12.3 µM (HeLa 229; cell growth or viability, MTT; 72 h).
`N[C@@H](CCC(=O)N[C@@H](CS[Se]Cc1ccc(-c2cc(C(F)(F)F)nn2-c2ccc(S(N)(=O)=O)cc2)cc1)C(=O)NCC(=O)O)C(=O)O` has an IC50 of 14.2 ± 1.2 µM (UACC-903 melanoma cells; cell viability, MTS; 72 h, metastatic stage).
With `CCc1n(CC(=O)O[C@@H]2C[C@H](C)CC[C@H]2C(C)C)c2ccccc2[n+]1C` the IC50 was 8.26 µM (Daoy; cell growth or viability).
The IC50 of `C=CCc1ccc(OC(C)=O)c(OC)c1` is reported as over 50 µM (HMEC; MTT; 24 h).
The IC50 of `CCOC(=O)c1csc2nc(-c3cccc(NC(=O)c4cc5cc(NC(=O)C(C)Cl)ccc5n4Cc4ccc(C(F)(F)F)cc4)c3)cn12` (stereo not shown) is reported as 12.9 µM (RAW264.7; TNF-α release, inhibitor, ELISA; 24 h, LPS-stimulated).
`O=C1/C(=C/c2ccccc2F)CNC/C1=C\c1ccccc1F` has an IC50 of 3.1 µM (MGC-803; cell growth or viability, MTT; 72 h).
The IC50 of `CN(C)CCO/N=C1/C=C2CCC3C(CC[C@]4(C)/C(=C/c5ccccn5)CCC34)[C@@]2(C)CC1` (stereo partly shown) is reported as 22.7 µM (CEM; cytotoxicity, alamarBlue; 72 h).
For `COc1ccc(/C=C/C(=O)c2ccccc2)cc1`, the IC50 was 28.8 µM (human cells; NF-κB reporter gene, inhibitor; together with: TNF-alpha).
For `CC1(C)CCCC(C)(C2CCC3(C)C2C(O)CC2C4(C)CCC(OC(=O)CN)C(C)(C)C4C(O)CC23C)O1` (stereo not shown), the IC50 was 2.81 ± 0.09 µM (Hep3B; HRE reporter gene, inhibitor; 24 h, hypoxia).
For `CC(=O)OC1C(=O)C2(C)C(O)CC3OCC3(OC(C)=O)C2C(OC(=O)c2ccccc2)C2(O)CC(OC(=O)C(OC(=O)OC3C=CCCC(C)(C(=O)NCC(=O)O)CC3)C(NC(=O)c3ccccc3)c3ccccc3)C(C)=C1C2(C)C` (stereo not shown), the IC50 was 0.08 µM (MC-38; cell growth or viability, MTT; 24 h).
With `Cc1nnc(-c2ccc(N3CCC(Oc4cc(F)ccc4Cl)CC3)nn2)o1` the IC50 was 0.003 to 0.015 µM (NSCLC cell lines; cell viability; range over eight lines).
